Values quoted from earlier work, collected from citations in different studies.
Lines come from different studies, so protocols differ. ± marks the error that the study gave.
Sequence of UniProt O95264 (whole entry, looked up): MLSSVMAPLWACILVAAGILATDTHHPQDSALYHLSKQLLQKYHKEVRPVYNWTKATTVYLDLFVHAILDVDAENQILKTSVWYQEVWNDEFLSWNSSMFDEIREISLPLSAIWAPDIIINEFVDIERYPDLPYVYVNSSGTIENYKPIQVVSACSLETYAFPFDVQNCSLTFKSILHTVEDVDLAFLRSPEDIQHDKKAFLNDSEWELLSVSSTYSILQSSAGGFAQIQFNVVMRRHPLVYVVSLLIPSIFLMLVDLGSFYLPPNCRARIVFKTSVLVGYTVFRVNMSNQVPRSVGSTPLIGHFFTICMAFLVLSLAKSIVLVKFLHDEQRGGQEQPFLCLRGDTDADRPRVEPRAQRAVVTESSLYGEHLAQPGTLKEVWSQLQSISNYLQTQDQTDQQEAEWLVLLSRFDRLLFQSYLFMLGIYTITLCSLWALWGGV
Sequence of UniProt P41143 (whole entry, looked up): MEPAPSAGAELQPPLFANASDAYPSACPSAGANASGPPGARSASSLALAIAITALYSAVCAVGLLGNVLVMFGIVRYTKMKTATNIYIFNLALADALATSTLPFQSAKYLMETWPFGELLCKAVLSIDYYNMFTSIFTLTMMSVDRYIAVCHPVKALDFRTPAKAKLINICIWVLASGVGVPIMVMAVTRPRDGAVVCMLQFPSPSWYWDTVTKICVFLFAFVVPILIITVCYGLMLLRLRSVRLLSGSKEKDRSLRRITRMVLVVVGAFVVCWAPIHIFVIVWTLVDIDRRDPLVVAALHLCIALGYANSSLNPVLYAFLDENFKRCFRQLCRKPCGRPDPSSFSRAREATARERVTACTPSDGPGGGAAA
Sequence of UniProt P32300 (whole entry, looked up): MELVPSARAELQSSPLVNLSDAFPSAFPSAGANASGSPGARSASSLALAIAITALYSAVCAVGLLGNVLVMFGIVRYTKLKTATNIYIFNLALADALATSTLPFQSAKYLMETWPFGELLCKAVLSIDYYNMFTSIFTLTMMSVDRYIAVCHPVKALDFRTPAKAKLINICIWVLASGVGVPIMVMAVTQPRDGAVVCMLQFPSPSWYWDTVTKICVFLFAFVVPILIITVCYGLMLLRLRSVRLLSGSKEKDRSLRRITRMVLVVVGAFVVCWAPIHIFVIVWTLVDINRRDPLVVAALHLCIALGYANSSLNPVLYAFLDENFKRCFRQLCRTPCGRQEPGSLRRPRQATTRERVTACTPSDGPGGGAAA
Sequence of UniProt O14976 (whole entry, looked up): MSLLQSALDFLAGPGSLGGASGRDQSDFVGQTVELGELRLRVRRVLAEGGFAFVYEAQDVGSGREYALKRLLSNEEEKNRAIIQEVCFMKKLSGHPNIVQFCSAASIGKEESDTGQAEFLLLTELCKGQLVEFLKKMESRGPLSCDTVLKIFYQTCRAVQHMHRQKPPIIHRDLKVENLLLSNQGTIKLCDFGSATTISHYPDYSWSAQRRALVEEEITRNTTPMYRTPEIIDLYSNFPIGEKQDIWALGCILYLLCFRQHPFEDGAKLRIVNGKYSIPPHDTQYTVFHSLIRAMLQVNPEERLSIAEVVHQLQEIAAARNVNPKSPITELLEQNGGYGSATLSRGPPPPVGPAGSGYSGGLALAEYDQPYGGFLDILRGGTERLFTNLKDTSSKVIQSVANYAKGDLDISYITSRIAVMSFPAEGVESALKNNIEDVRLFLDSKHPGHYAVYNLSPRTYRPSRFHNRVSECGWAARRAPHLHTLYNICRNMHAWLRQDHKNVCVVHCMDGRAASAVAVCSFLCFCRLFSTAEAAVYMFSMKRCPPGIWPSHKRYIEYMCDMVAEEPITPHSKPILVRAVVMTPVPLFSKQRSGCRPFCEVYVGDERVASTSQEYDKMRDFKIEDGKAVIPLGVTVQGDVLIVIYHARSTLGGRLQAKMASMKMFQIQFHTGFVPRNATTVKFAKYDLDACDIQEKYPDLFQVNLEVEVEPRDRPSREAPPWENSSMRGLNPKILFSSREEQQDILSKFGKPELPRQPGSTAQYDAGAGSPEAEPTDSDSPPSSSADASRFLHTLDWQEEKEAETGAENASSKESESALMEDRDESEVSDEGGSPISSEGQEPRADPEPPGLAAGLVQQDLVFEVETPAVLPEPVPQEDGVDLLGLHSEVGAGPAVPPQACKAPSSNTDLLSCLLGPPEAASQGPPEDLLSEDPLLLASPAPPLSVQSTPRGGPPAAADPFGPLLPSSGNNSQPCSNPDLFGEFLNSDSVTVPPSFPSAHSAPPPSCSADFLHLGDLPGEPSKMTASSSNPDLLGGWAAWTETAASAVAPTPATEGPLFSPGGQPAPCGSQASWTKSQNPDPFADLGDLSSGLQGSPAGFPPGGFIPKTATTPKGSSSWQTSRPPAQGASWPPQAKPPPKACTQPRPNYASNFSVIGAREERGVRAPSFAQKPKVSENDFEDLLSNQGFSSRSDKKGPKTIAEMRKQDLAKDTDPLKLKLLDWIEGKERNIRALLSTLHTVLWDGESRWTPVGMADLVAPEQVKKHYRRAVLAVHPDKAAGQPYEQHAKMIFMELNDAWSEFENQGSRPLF
Sequence of UniProt Q12908 (whole entry, looked up): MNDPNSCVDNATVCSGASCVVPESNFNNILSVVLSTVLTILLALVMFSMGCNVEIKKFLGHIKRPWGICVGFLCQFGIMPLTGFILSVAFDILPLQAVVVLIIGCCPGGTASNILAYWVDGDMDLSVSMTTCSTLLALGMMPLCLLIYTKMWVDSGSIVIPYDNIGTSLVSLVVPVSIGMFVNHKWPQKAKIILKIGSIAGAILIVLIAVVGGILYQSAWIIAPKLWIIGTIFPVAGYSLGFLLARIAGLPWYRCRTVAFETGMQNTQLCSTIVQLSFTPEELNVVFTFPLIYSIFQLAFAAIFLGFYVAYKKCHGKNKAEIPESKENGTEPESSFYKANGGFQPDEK
Sequence of UniProt P35372 (whole entry, looked up): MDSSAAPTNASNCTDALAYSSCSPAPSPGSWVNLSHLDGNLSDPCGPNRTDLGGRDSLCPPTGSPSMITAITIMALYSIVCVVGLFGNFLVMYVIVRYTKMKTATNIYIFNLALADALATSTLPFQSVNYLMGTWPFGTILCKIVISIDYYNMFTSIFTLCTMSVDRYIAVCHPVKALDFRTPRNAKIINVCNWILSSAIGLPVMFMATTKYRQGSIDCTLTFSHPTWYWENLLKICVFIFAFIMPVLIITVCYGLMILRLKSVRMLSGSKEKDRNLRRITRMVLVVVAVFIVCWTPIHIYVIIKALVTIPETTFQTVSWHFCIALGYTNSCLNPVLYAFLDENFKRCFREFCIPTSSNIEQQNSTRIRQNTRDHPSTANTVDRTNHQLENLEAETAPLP
Sequence of UniProt O55242 (whole entry, looked up): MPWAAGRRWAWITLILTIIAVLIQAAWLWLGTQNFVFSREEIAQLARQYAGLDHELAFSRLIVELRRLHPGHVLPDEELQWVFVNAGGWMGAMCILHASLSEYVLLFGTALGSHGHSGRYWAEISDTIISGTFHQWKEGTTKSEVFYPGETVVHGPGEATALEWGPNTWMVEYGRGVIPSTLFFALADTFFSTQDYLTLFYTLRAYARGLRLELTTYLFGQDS
Sequence of UniProt P25084 (whole entry, looked up): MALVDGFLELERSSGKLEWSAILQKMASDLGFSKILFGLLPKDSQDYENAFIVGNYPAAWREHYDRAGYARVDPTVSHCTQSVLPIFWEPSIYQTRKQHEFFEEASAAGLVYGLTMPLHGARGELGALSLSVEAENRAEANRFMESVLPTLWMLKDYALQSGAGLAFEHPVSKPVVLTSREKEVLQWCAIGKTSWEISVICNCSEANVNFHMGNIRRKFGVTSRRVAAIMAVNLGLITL
Sequence of UniProt P21554 (whole entry, looked up): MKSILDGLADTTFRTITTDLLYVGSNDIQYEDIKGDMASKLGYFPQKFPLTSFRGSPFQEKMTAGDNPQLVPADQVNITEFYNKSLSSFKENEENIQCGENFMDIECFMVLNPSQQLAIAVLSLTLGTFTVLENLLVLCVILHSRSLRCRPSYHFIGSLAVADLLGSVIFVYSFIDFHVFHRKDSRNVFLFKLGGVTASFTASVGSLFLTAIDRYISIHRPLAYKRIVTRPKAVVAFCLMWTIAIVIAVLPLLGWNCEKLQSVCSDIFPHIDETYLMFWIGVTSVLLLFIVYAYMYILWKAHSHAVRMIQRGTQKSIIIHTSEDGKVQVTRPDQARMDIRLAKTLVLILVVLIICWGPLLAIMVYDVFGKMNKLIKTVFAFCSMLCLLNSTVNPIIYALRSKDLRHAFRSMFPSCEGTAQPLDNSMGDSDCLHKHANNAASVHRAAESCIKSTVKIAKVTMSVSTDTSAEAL

| Compound | target | assay | test system | setting | how to read | quantity | result |
| --- | --- | --- | --- | --- | --- | --- | --- |
| CC(CCC(=O)NC(CCCCNC(=O)C(F)(F)F)C(=O)O)C1CCC2C3C(O)CC4CC(O)CCC4(C)C3CC(O)C12C (stereo not shown) | Ileal sodium/bile acid cotransporter (SLC10A2, Homo sapiens, UniProt Q12908) | substrate | – | – | – | Km | 39.4 ± 23.8 µM |
| CCCCCCCc1c(C(=O)NCCc2ccc(N3CCCCC3)cc2)[nH]c2ccc(Cl)cc12 | Cannabinoid receptor 1 (CNR1, Homo sapiens, UniProt P21554) | allosteric modulator, radioligand binding | – | together with: [3H]CP55,940 | – | cooperativity factor alpha | 7.4 |
| OCCN1C[C@H](O)[C@@H](O)[C@H](O)[C@H]1CF | α-glucosidase, yeast | – | – | concentration not given | – | inhibition | inactive |
| NS(=O)(=O)c1ccc(N2N=C(C(F)(F)F)CC2c2ccc(F)cc2F)cc1 (stereo not shown) | COX-2 sheep placenta | inhibitor | – | – | reference: COX-1 IC50 over COX-2 IC50 | selectivity ratio | > 100 fold |
| CC(=O)N[C@H]1[C@@H](OC[C@H](NC(=O)CNC(=O)[C@@H]2CCCN2C(=O)[C@H](C)NC(=O)[C@@H]2CCCN2C(=O)[C@@H](N)CCCNC(=N)N)C(=O)N[C@H](C(=O)N[C@@H](C)C(=O)N2CCC[C@H]2C(=O)N2CCC[C@H]2C(=O)N[C@@H](C)C(=O)N[C@@H](Cc2c[nH]cn2)C(=O)NCC(=O)O)[C@@H](C)O)O[C@H](CO)[C@H](O)[C@@H]1O | 14 A monoclonal antibody | SPR | – | – | – | koff | 0.0514 s⁻¹ |
| CCCCCC1=C(NCC)C(=O)C(C/C=C(\C)CCC=C(C)C)=C(O)C1=O | cannabinoid receptor CB2 | – | – | concentration not given | – | activity | inactive |
| CCCC[C@@H](C(=O)N[C@@H](CC(=O)O)C(=O)N[C@@H](Cc1ccccc1)C(N)=O)N(C)C(=O)[C@@H](Cc1c[nH]c2ccccc12)NC(=O)CNC(=O)[C@@H](Cc1ccccc1)NC(=O)[C@@H](N)Cc1ccc(O)cc1 | delta opioid receptor | mouse vas deferens | – | – | – | activity | 0.45 nM |
| COc1cc(O)c2c(c1)/C=C/C[C@H](O)[C@H](O)C(=O)/C=C\C[C@H](C)OC2=O | Cyclin-G-associated kinase (GAK, Homo sapiens, UniProt O14976) | – | – | 10 µM | reference: control | remaining binding | 10% |
| CC(CCC(=O)O)C1CCC2C3CCC4CC(OC(=O)C(N)CC(=O)O)CCC4(C)C3CCC12C (stereo not shown) | Beta-galactoside alpha-2,6-sialyltransferase 1 (ST6GAL1, Homo sapiens, UniProt P15907) | – | – | – | reference: IC50 ST3GAL1 over IC50 ST6GAL1 | selectivity ratio | 3 |
| CN1CCN(c2nc3ccccc3nc2Cl)CC1 | Serotonin 3 (5-HT3) receptor (Homo sapiens, UniProt O95264+P46098) | ion current | – | – | reference: 5-HT | relative maximal response | 0.03 ± 0.02 |
| CC(C)[C@@H](CN1CC[C@@](C)(c2cccc(C(N)=O)c2)[C@@H](C)C1)NC(=O)[C@H]1Cc2ccc(O)cc2CN1 | Mu-type opioid receptor (OPRM1, Homo sapiens, UniProt P35372) | antagonist | – | together with: DAMGO | – | Ke | 21 ± 3 nM |
| O=C([O-])CN1CCN(CC(=O)NCCN(Cc2ccccn2)Cc2ccccn2)CCN(CC(=O)[O-])CCN(CC(=O)NCCN(Cc2ccccn2)Cc2ccccn2)CC1.[Gd+3] | Albumin, Zn(II)-bound (ALB, Homo sapiens, UniProt P02768) | – | – | 0.47 T bound to HSA, together with: Zn(II) | – | relaxivity r1 | 17.5 mM⁻¹ s⁻¹ |
| CSCC[C@H](NC(=O)[C@H](Cc1ccccc1)NC(=O)CNC(=O)[C@@H](C)NC(=O)[C@@H](N)Cc1ccc(O)cc1)C(=O)N1CCC[C@H]1C(=O)N[C@@H](CC(C)C)C(=O)N[C@@H](Cc1c[nH]c2ccccc12)C(=O)NCc1cc(C(F)(F)F)cc(C(F)(F)F)c1 | Delta-type opioid receptor (OPRD1, Homo sapiens, UniProt P41143) | agonist | – | – | – | Emax | 60 ± 2% |
| CC(C)C[C@@H]1NC(=O)[C@H](Cc2ccc(O)cc2)NC(=O)[C@H](CC(N)=O)NC(=O)[C@H](CO)NC(=O)[C@@H](NC(=O)[C@@H]2CCCN2C(=O)[C@H](CC(N)=O)NC(=O)[C@H](Cc2ccc(O)cc2)NC(=O)[C@H](CCCCN)NC(=O)[C@H](CO)NC(=O)[C@H](C)NC(=O)[C@@H](N)CC(N)=O)CSC1=O | Accessory gene regulator protein C (Staphylococcus epidermidis, UniProt Q5HMY3) | group-I agr signalling, inhibitor | – | concentration not given | – | agr system activity | inhibited |
| O=C1C=C(Br)/C(=C/Br)O1 | Transcriptional activator protein LasR (lasR, Pseudomonas aeruginosa, UniProt P25084) | antagonist | – | up to 10 µM | – | inhibition | < 20% |
| CC(=O)N[C@@H](Cc1ccccc1)C(=O)N[C@@H](CC(=O)O)C(=O)N[C@@H](CC(N)=O)C(=O)N1CCC[C@H]1C(=O)N[C@H](C(=O)N[C@@H](CO)C(=O)O)C(C)C | LDL receptor, position 807 mutant | – | – | – | reference: native LDL receptor | internalization index | 0.2 |
| CSCC[C@H](NC(=O)[C@H](Cc1ccccc1)NC(=O)CNC(=O)[C@@H](C)NC(=O)[C@@H](N)Cc1ccc(O)cc1)C(=O)N1CCC[C@H]1C(=O)N[C@@H](CC(C)C)C(=O)N[C@@H](Cc1c[nH]c2ccccc12)C(=O)NCc1cc(C(F)(F)F)cc(C(F)(F)F)c1 | Delta-type opioid receptor (Oprd1, Mus musculus, UniProt P32300) | agonist | – | – | – | Emax | 100% |
| CC(C)(C)c1ccc(C(=O)Nc2cc(Cl)c(Br)cc2C(=O)O)cc1 | mammalian kinase panel | – | – | 5 µM | highest of any kinase | inhibition | ≤ 10% |
| COc1ccc(CCN2CCN(C/C=C/[125I])CC2)cc1OC | Sigma non-opioid intracellular receptor 1 (Sigmar1, Mus musculus, UniProt O55242) | ex vivo autoradiography | mouse | dose not given, 60 min | reference: total binding | specific binding | 80% |

A few entries again:
| Compound | target | assay | test system | setting | how to read | quantity | result |
| --- | --- | --- | --- | --- | --- | --- | --- |
| CCCCCC1=C(NCC)C(=O)C(C/C=C(\C)CCC=C(C)C)=C(O)C1=O | cannabinoid receptor CB2 | – | – | concentration not given | – | activity | inactive |
